Results of several laboratories.
Every numbered part comes from another study and shows a few of its results, in no order.

Set 1 — method: protein binding microarray; molecule type: double-stranded DNA, one strand shown; matrix: in vitro; tested at: not given; reference: not given; reading: higher = stronger binding
Target: Histone acetyltransferase KAT6A, winged helix 2, GST fusion (KAT6A, Homo sapiens, UniProt Q92794, residues 85-181)
Notes: 8-mer, flanks averaged, mean of 2 arrays, mostly near background
Target sequence (chain): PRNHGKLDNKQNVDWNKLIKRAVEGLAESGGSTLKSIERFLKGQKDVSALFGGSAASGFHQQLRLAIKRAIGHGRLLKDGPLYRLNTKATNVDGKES
Strand | E-score
CACACGGC | 0.103
ACGCCTGC | 0.00177
GGCCGCGA | 0.109
ATACCGTG | -0.139
CGGCGCTC | 0.217
AGAACGTC | -0.152
AGCCATGA | 0.0325
AATGAACG | -0.196
GTACTTAA | -0.0931
CCGACACC | -0.213
TCACGCCA | 0.0359
AAACCGTT | -0.115
ACATGGCA | 0.0208
GGACGCCC | 0.0438
AAGGTTCG | 0.0348
AACATGGA | 0.0322
CAACGCCC | 0.00664
CACTCGAC | -0.0143
TATCATCA | 0.0873
CCAGCAAG | 0.0261
CAGAAATA | -0.126
CTCTAAAG | 0.0368
CCCCGCGA | 0.163
GAGAGCAC | 0.13
ACCAGGGC | -0.0628

Set 2 — method: aptamer microarray, sandwich; molecule type: DNA with 2'F-ANA; matrix: in vitro; tested at: 200 nM; with: Cy3 exosite-II aptamer, 400 nM; reading: higher = stronger binding; strand: GGTTGGTGTGGTTGG
Target: Prothrombin, mature alpha-thrombin (F2, Homo sapiens, UniProt P00734)
Notes: whole 15-mer aptamer, many near background
Modification | mean fluorescence intensity
2'F-ANA at 1 2 3 4 5 7 13 14 15 | 45.2 a.u.
2'F-ANA at 1 2 3 7 9 10 12 13 15 | 89.9 a.u.
2'F-ANA at 1 2 7 8 9 12 13 14 | 73.6 a.u.
2'F-ANA at 1 4 5 6 7 8 9 10 12 13 | 50.2 a.u.
2'F-ANA at 8 10 11 13 14 15 | 87 a.u.
2'F-ANA at 1 2 3 6 10 11 14 | 80.5 a.u.
2'F-ANA at 3 6 8 10 15 | 490 a.u.
2'F-ANA at 2 9 14 | 140 a.u.
2'F-ANA at 3 5 6 7 9 10 12 | 64.4 a.u.
2'F-ANA at 2 3 12 13 | 1010 a.u.
2'F-ANA at 1 3 6 8 9 10 12 13 14 15 | 76.1 a.u.
2'F-ANA at 1 6 8 9 10 11 12 13 | 62.7 a.u.
2'F-ANA at 2 3 5 7 11 14 | 58.4 a.u.
2'F-ANA at 1 2 5 7 8 9 10 11 12 | 53.9 a.u.
2'F-ANA at 4 8 10 11 13 14 15 | 57.3 a.u.
2'F-ANA at 3 4 5 7 8 9 12 13 15 | 126 a.u.
2'F-ANA at 3 4 7 9 10 14 15 | 215 a.u.
2'F-ANA at 1 2 4 5 6 12 15 | 124 a.u.
2'F-ANA at 3 4 5 6 8 9 12 13 | 155 a.u.
2'F-ANA at 2 4 5 6 8 9 10 11 12 14 | 44.9 a.u.
2'F-ANA at 1 2 3 6 7 8 10 11 12 15 | 399 a.u.
2'F-ANA at 1 5 6 7 11 12 14 | 63.8 a.u.

Set 3 — method: RNAcompete; molecule type: RNA; matrix: in vitro; tested at: 20 nM; notes: 7-mer, probes averaged, single round; reference: mean of 7-mers; reading: higher = stronger binding
Target: PABPC1L2, full length, GST fusion (mouse, UniProt A0ABA7IW68)
Target sequence (chain): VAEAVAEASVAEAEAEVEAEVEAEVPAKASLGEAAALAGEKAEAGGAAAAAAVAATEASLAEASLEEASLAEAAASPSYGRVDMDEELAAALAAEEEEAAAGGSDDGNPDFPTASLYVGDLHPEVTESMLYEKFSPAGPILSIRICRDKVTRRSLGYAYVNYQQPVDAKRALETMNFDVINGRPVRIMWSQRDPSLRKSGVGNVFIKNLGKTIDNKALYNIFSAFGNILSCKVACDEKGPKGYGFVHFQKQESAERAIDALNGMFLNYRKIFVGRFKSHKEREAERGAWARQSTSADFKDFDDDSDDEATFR
Strand | 7-mer Z-score
GAAAUCA | 0.448
UAGGAUU | -0.0536
AAUGUCG | -0.0264
GCACGAA | 0.122
UGAUGGA | -0.079
GUUGUUC | -0.434
GUCUUAC | -0.385
UUUGACG | -0.235
CUACAAU | -0.191
CCAGUGU | -0.141
GGAGUUG | -0.0645
UUAGGGU | -0.021
GUAGUUA | -0.119
CAUUCUU | -0.228
CACAAUC | -0.151
GCCACCA | -0.141
UCAUGAU | -0.219
GUACUUG | -0.128

Set 4 — method: protein-binding microarray; molecule type: double-stranded DNA, one strand shown; matrix: in vitro; tested at: 250 nM; notes: 60-bp whole probe; with: salmon DNA 0.4 mg/ml; reference: random background probes; reading: higher = stronger binding; constant ends, left off below: GCCTAGCAC … GTCTTGATTCGCTTGACGCTGCTG
Target: Interferon regulatory factor 7, full length, phosphomimetic (IRF7, Homo sapiens, UniProt Q92985, residues 1-503, S101K/S471D/S472D/S475D/S476D/S477D/S483D/S484D/S487D)
Chain of UniProt Q92985 (whole entry, unmodified, looked up): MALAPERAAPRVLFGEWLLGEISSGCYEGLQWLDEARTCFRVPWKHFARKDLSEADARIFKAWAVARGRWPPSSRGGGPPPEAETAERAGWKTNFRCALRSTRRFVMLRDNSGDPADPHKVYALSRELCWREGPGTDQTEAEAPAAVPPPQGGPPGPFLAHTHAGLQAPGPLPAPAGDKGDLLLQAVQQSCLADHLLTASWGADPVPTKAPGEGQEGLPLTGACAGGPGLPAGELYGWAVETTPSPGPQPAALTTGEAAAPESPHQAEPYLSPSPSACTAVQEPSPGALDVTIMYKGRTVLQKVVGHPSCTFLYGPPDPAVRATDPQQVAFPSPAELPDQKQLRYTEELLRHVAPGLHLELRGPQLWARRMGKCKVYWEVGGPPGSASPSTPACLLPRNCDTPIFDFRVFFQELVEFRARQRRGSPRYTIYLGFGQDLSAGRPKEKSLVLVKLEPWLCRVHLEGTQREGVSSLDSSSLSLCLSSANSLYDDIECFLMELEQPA
Strand | log fluorescence
TTAGCTATCGGGTATCGGTTAGTGCTA | 0.266 z-score
GACGATATCGGGTCTCGAGACGTGCTA | 0.0622 z-score
TTAGAAATCAGTATCGATTAGTGCTAG | 0.679 z-score
TTAGGTGTCCTTATCCTTTAGTGCTAG | -0.338 z-score
GACGGTTTCGACACTGGTGACGTGCTA | 3.7 z-score
TCACTTTGCTTTCTCCCACTGTGCTAG | 1.48 z-score
ATAGATTTCAGACTGGATTAGTGCTAG | -0.0744 z-score
TTAGGTATCCCTATCCTTTAGTGCTAG | 0.191 z-score
GACTATATCGGGTATCGAGACGTGCTA | 0.139 z-score
TTAGATATCAGACTGGATTGGTGCTAG | -0.0308 z-score
GACGGACTGTGGTATCGGGACGTGCTA | -0.426 z-score
TAAGGTATCCTTCTCCTTTAGTGCTAG | 0.651 z-score
ATTGTCTTCCCCATCTTGTTGTGCTAG | 1.29 z-score
TCATGTATGGGCATTTTTACTGTGCTA | -0.768 z-score
TCAGAATTTACTTTCTACGTGTGCTAG | -0.0415 z-score
GACGGACAGGGGTTTCGGGACGTGCTA | 1.11 z-score
ACCTATAGGTTGTTTCTAATAGTGCTA | 0.0857 z-score
TTAGATATCAGTTTCGAATAGTGCTAG | 4.02 z-score
GAAAATGCCCTTTTGGTGAGGTGCTAG | 0.314 z-score
GACGGACAGGGGACTGGGGACGTGCTA | -0.488 z-score
TTTGATATCAGTATCGATTAGTGCTAG | 0.649 z-score
TGAGTTTTCCTTCATGTGCCGTGCTAG | 1.31 z-score
TTAGGACTGAGTTTCGGTTAGTGCTAG | 7.25 z-score
GACGAACTGAATATCGAGACGTGCTAG | 0.136 z-score
TCATTCCTCTTTCTTTGACTGTGCTAG | 2.68 z-score

Set 5 — method: RNA Bind-n-Seq; molecule type: RNA; matrix: in vitro; tested at: 365 nM; reference: no-protein control; reading: higher = stronger binding
Target: RNA binding protein fox-1 homolog 2, RRM domain, GST-SBP tag (RBFOX2, Homo sapiens, UniProt O43251-10, residues 100-194)
Notes: natural RNA segment, single round, ends assumed
Constant ends, left off below: GGGAGUUCUACAGUCCGACGAUC … UGGAAUUCUCGGGUGCCAA
Target sequence (chain): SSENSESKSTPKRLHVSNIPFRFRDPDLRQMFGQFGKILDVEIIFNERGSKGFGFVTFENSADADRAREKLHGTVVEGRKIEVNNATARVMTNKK
Strand | RBNS enrichment (R)
GCCUGUCUGUCUUCCUGUCACGUGGAUCCUUGGUUCUUUCCCGGCCAUUCCAUUCCCAGGGAGUGAGAAGUAUUGUGGGUAGAGUUGCCAAAGAUGGCUGGACCAUGGAA | 1.85
GACUUCUCAUGACCAGAGGGCUCUGCACCAGCAUCCCCAAAGAGCCAAGAAGGCCACCAUGCUUUUACUGUCCAGACCAAAAUGUUGCUCUCAAUCCCCAACAUUUGAUA | 0.549
CCGUGAUGCCAUUUGGAGGGGAGAGGUCUGCUUCCCACUGUGACCAGGCUAUGGGAUCCUUGGCCACCUUGCUUCAUGAUUUGAUACAUUUGUUGUAUUCAAAAACUUGA | 0.528
ACAGGAUGAGGUCUCGACCCUGUCCCCUAGGGACUGUCCUAGCCAGGUCUCCUGGGAAAGGGAGAUGUCAGGAUGUUGCUCCAUCCUUUGUCUUGGAACCACCAGUCUAG | 0.375
AUAUAUAUAUAUUUAAAACGUUUCUUUUCUGUAUGAUGUGCAUGCAAGUUUACCGUAACUUUUCUUAAACUUUUUAGUGCCGUUUCUAGUAUAUUCCUGUAAAUGUCAGU | 48.6
CAGUGAGGGAGAGAGACCCCGACUCCAUUUGUACUUCUUUCUUGACACUCUUCUCAGCUUAUAAAAUUUGCCGUUUUGUAUAUUUUUAAAUAUGGAUCAAAAAGAGUCUU | 0.492
GCAGACACGGCACAGCAAACAUUUUGCAAACUGCAGCAGAAAUCGAAUUUAAAACAAAAAGGAGGGACUUUAAAAUACCUUCUUGACAAAAAUCAACAAUGCACAACUUA | 0.303
GGGGGAGAGAAGCUGUGGCAUAAUGUAUAGCUCUGUAGUCUUCUGUGUAGCUAGACUGUUAACCUACGAUUGUAAACUAGCUGUAAGGAUUUCCCAGUGAAAUCAGAUUU | 0.491
ACCUCCACACAAGACCCUGUUGACUCAGGAGGAUCUCCGCAAUGGUUGAUUAAUAGCUGAAGCAAAGUAUCCAAAUUUGUGACAAGGGUUUGUGUGUAUCCCCUCCGUGA | 0.271
UGAAGGUUGGUCACCCAUCCAGCCUAUUACCUUUUGCUUUGUGUAUUAAAAGUGCUGCAAAAUCUGCCUUGCCUCCCAGGAGGCCCUUUUGUGUCUGAGGGAGGUGGGGA | 0.325
CCUCCAGCCCACACCACCCAGACCUAGGCUUCCCUCUUCUCAGGAUCCACCACAGGGUUAGGGGACAGGAAGCCUGUUCUAUUCUCAAUAAAUCUUACAAAAUUCCAAAA | 0.692
AUCUUUUGGGUUUGAAUGAAGGUUUUACAUAAGAAAUUAUUAAAAACAAGGGGGGUGGGUAAUAAAUGUAUAUAACAUUAAAUAAUGUAACGUAGGUGUAGAUUCCCAAA | 1.97
